Results of several laboratories.
Lines come from different studies, so protocols differ. ± gives the spread as reported. ≈ marks a conversion by molar mass, not a printed value.

With NC(=O)c1nc(F)c[nH]c1=O the solubility was 722 µg/mL (≈ 4.6 mM) (UV-Vis spectrophotometry; supercritical CO2; 120 min, 308 K, 21 MPa, 874.40 kg/m^3).
With CN[C@@](C)(C[18F])C(=O)O the tissue uptake was 0.9 ± 0.2 %ID/g (SCID mouse DU-145 xenograft, muscle; 30 min, post injection).
O[C@H]1CCCN[C@@H]1CCCn1cnc2c(Cl)c(Cl)ccc21 has a Cmax of 514 ng/mL (human, plasma; oral, 500 mg, single dose, healthy volunteers).
CC[C@H](C)[C@H](NC(=O)[C@@H](N)CCCNC(=N)N)C(=O)N[C@H](C(=O)N1CCC[C@H]1C(=O)N[C@@H](C)C(N)=O)C(C)C has a Cmax of 1160 ± 592 ng/mL (healthy volunteers, both sexes, plasma; intravenous infusion, 0.5 mg/kg daily, day 7, multiple ascending dose).
With O=c1[nH]c(Cc2ccccn2)nc2c1cnn2C1CCOCC1 the AUC(0-inf) was 1.46 µM·h (healthy men, extensive metabolizers, plasma; oral, 100 mg single dose, tablet, geometric mean).
CCCCCOc1ccc(-c2cc(-c3ccc(C(=O)N[C@H]4C[C@@H](O)[C@@H](O)NC(=O)[C@@H]5[C@@H](O)[C@@H](C)CN5C(=O)[C@H]([C@H](O)CC(N)=O)NC(=O)[C@H]([C@H](O)[C@@H](O)c5ccc(O)c(OS(=O)(=O)O)c5)NC(=O)[C@@H]5C[C@@H](O)CN5C(=O)[C@H]([C@@H](C)O)NC4=O)cc3)no2)cc1 has a Vdss of 1.2 L (preterm neonates below 1000 g, plasma; intravenous, 15 mg/kg/day, repeated dosing, mean).
For N#Cc1ccc(N2N=C3c4ccc(C(=O)N5CCC(O)CC5)nc4CC[C@@H]3[C@@H]2C2CCCC2)cc1Cl, the CL/F was 0.725 L/h (human, plasma; oral, 0.5 mg, single dose).
For CS(=O)(=O)CCCn1c(Cn2c(=O)n(CC(F)(F)F)c3ccncc32)cc2cc(Cl)ccc21, “patients with high aPTT” read 11% (RSV-infected infants; concentration not given, high dose cohorts).
For CC1(C)S[C@@H]2[C@H](NC(=O)[C@H](C(=O)O)c3ccsc3)C(=O)N2[C@H]1C(=O)O, the relative error was 1% (rat plasma; 8000 ng/mL, three freeze-thaw cycles; baseline: nominal concentration).
Cc1cc(=O)[nH]c2c1NC(=O)c1cccnc1N2C1CC1 has a Cmax of 5.6 ± 4.34 ng/mL (olive baboon (Papio anubis), non-pregnant, serum; oral, 800 mg nevirapine, tablet).
The permeability ratio of COc1ccc([C@@H]2CC(=O)c3c(O)cc(O[C@@H]4O[C@H](CO[C@@H]5O[C@@H](C)[C@H](O)[C@@H](O)[C@H]5O)[C@@H](O)[C@H](O)[C@H]4O)cc3O2)cc1O is reported as roughly 10 fold (New Zealand albino rabbit, sclera; baseline: sclera over sclera-RPE and cornea).
For CNC(=O)c1ccc(-c2cnn3ccc(C(=O)N(C)c4ccc(Cl)c(C(=O)OC)c4)cc23)cc1, the AUC(0-8 h) was 207 ng·h/mL (beagle dogs, both sexes, plasma; oral, 250 mg/kg/day, day 1, 2-week toxicology study).
With CC[C@H](C)[C@H](NC(=O)[C@H](CO)NC(=O)[C@H](C)NC(=O)[C@@H](NC(=O)CNC(=O)[C@H](CO)NC(=O)[C@@H](NC(=O)[C@@H](NC(=O)[C@H](Cc1c[nH]cn1)NC(=O)[C@@H]1CCCN1C(=O)[C@@H](NC(=O)[C@H](CC(C)C)NC(=O)[C@H](CO)NC(=O)[C@H](CC(C)C)NC(=O)[C@@H](N)Cc1ccccc1)[C@@H](C)CC)[C@@H](C)CC)C(C)C)C(C)C)C(=O)N[C@@H](C)C(=O)N[C@@H](CCCCN)C(=O)N[C@@H](Cc1c[nH]cn1)C(=O)N[C@@H](Cc1ccccc1)C(N)=O the concentration found was 49 ng/mL (UPLC-MS/MS; processed rat plasma in autosampler; 0.05 µg/mL, 8 h, 25 °C, post-preparative stability).
The remaining amount of CC(C)Nc1nc(Cl)nc(NC(C)C)n1 is reported as 5.93 ± 3.07% (LC-MS/MS; herbicide solution; 2 h, 4 °C, added: 365 nm UV exposure).
The EC100 toxicity of Cc1cc(C)c(/C=C2\C(=O)Nc3ccccc32)[nH]1 is reported as 5 µM (zebrafish embryos; 48 h).
CC(C)C[C@H](NC(=O)[C@H](CC(=O)O)NC(=O)CNC(=O)[C@H](CCCNC(=N)N)NC(=O)[C@H](CC(C)C)NC(=O)[C@H](CC(N)=O)NC(=O)[C@@H]1CCCN1C(=O)[C@@H](NC(=O)[C@H](C)NC(=O)[C@H](CC(N)=O)NC(=O)CCOCCOCCOCCOCCOCCOCCOCCOCCOCCOCCOCCOCCOCCOCCOCCOCCOCCOCCOCCOCCOCCOCCOCCOCCOCCOCCOCCOCCNC(=O)CN1CCN(CC(=O)O)CCN(CC(=O)O)CC1)C(C)C)C(=O)N[C@@H](CCC(N)=O)C(=O)N[C@H](C(=O)N[C@@H](CC(C)C)C(=O)N[C@@H](C)C(=O)N[C@@H](CCC(N)=O)C(=O)N[C@@H](CCCNC(=N)N)C(=O)N[C@H](C(=O)N[C@@H](C)C(=O)N[C@@H](CCCNC(=N)N)C(=O)N[C@H](C(=O)NCCOCCOCCOCCOCCOCCOCCOCCOCCOCCOCCOCCOCCOCCOCCOCCOCCOCCOCCOCCOCCOCCOCCOCCOCCOCCOCCOCCOCCC(N)=O)[C@@H](C)O)C(C)C)C(C)C [fluorine-18 labelled] has a tissue uptake of no more than 0.9 %ID/g (female athymic nude mice, DX3puroβ6/DX3puro xenografts, bone; intravenous, 0.175 nmol).
The serum concentration of Nc1nc(N)nc(N)n1 is reported as 89000 to 683000 ng/mL (CD IGS rat, female, pregnant, serum; oral, 1000 mg/kg/day, 10 days, with rectangular renal crystals).
Cc1cc(C(C#N)c2ccc(Cl)cc2)c(Cl)cc1NC(=O)c1cc(I)cc(I)c1O (centres unmarked) has a Cmax of 78000 ± 14500 ng/mL (parasitized Corriedale lambs, plasma; oral, 10 mg/kg).
The half-life of CC(C)C[C@H](NC(=O)[C@H](Cc1cccc2ccccc12)NC(=O)[C@H](CNC(=O)c1ccc(F)nc1)NC(=O)[C@H](CO)NC(=O)C1CCNCC1)C(=O)N(C)[C@@H](CO)C(=O)N1CCC[C@H]1C(=O)N[C@H](C(N)=O)[C@@H](C)O is reported as greater than 24 h (chemical stability; male human, serum; 1 mM, pH 7.4).
With CSCC[C@@H]1NC(=O)[C@H](CC(=O)O)NC(=O)CNC(=O)[C@H](CCCNC(=N)N)NC(=O)[C@H](C)NC(=O)[C@H](CCC(=O)O)NC(=O)[C@H](CCCNC(=N)N)NC(=O)[C@@H]2CSSC[C@@H]3NC(=O)[C@H](CO)NC(=O)[C@H]([C@@H](C)O)NC(=O)[C@@H]4CCCN4C(=O)[C@H](C)NC(=O)[C@H](Cc4c[nH]c5ccccc45)NC(=O)[C@H](CC(=O)O)NC(=O)CNC(=O)[C@H](CCCNC(=N)N)NC(=O)CNC(=O)[C@H](CCC(N)=O)NC(=O)[C@@H]4CCCN4C(=O)[C@@H](NC(=O)CNC(=O)C(C)F)CSSC[C@H](NC(=O)CNC(=O)[C@H](C)NC(=O)[C@H](CC(C)C)NC(=O)[C@H](CSSC[C@@H](C(=O)NCC(N)=O)NC(=O)[C@H]([C@@H](C)O)NC(=O)[C@H](CCCNC(=N)N)NC(=O)[C@@H]4CCCN4C1=O)NC(=O)[C@H](CC(=O)O)NC(=O)[C@H](CO)NC(=O)[C@H](CC(=O)O)NC(=O)[C@H](CCC(N)=O)NC(=O)[C@H](CO)NC3=O)C(=O)N[C@@H](C(C)C)C(=O)N2 (some centres unmarked) [fluorine-18 labelled] the tissue uptake was 0.48 ± 0.08 %ID/g (nude mice U-87 MG xenograft, heart; intravenous, 0.5 h).
[123I]c1cncc(OC[C@@H]2CCN2)c1 has a tissue/plasma ratio of 19.5 (SPECT; human, occipital lobe; intravenous bolus plus infusion, 7.6 mCi; baseline: tissue over plasma).
Under “time above binding threshold”, O=C(O)CN(CCN(CC(=O)O)CC(=O)O)CCN(CC(=O)O)CC(=O)O is recorded as 2.9 h (beagle dog; intravenous, 300 µM, 90% binding threshold).
Under “unbound fraction in blood”, CCCCCCCCCCCC[N+](C)(C)C is recorded as 0.027 (ultrafiltration; human serum).

Some of these lines once more:
Cc1cc(C(C#N)c2ccc(Cl)cc2)c(Cl)cc1NC(=O)c1cc(I)cc(I)c1O (centres unmarked) has a Cmax of 78000 ± 14500 ng/mL (parasitized Corriedale lambs, plasma; oral, 10 mg/kg).
With CSCC[C@@H]1NC(=O)[C@H](CC(=O)O)NC(=O)CNC(=O)[C@H](CCCNC(=N)N)NC(=O)[C@H](C)NC(=O)[C@H](CCC(=O)O)NC(=O)[C@H](CCCNC(=N)N)NC(=O)[C@@H]2CSSC[C@@H]3NC(=O)[C@H](CO)NC(=O)[C@H]([C@@H](C)O)NC(=O)[C@@H]4CCCN4C(=O)[C@H](C)NC(=O)[C@H](Cc4c[nH]c5ccccc45)NC(=O)[C@H](CC(=O)O)NC(=O)CNC(=O)[C@H](CCCNC(=N)N)NC(=O)CNC(=O)[C@H](CCC(N)=O)NC(=O)[C@@H]4CCCN4C(=O)[C@@H](NC(=O)CNC(=O)C(C)F)CSSC[C@H](NC(=O)CNC(=O)[C@H](C)NC(=O)[C@H](CC(C)C)NC(=O)[C@H](CSSC[C@@H](C(=O)NCC(N)=O)NC(=O)[C@H]([C@@H](C)O)NC(=O)[C@H](CCCNC(=N)N)NC(=O)[C@@H]4CCCN4C1=O)NC(=O)[C@H](CC(=O)O)NC(=O)[C@H](CO)NC(=O)[C@H](CC(=O)O)NC(=O)[C@H](CCC(N)=O)NC(=O)[C@H](CO)NC3=O)C(=O)N[C@@H](C(C)C)C(=O)N2 (some centres unmarked) [fluorine-18 labelled] the tissue uptake was 0.48 ± 0.08 %ID/g (nude mice U-87 MG xenograft, heart; intravenous, 0.5 h).
With CC[C@H](C)[C@H](NC(=O)[C@H](CO)NC(=O)[C@H](C)NC(=O)[C@@H](NC(=O)CNC(=O)[C@H](CO)NC(=O)[C@@H](NC(=O)[C@@H](NC(=O)[C@H](Cc1c[nH]cn1)NC(=O)[C@@H]1CCCN1C(=O)[C@@H](NC(=O)[C@H](CC(C)C)NC(=O)[C@H](CO)NC(=O)[C@H](CC(C)C)NC(=O)[C@@H](N)Cc1ccccc1)[C@@H](C)CC)[C@@H](C)CC)C(C)C)C(C)C)C(=O)N[C@@H](C)C(=O)N[C@@H](CCCCN)C(=O)N[C@@H](Cc1c[nH]cn1)C(=O)N[C@@H](Cc1ccccc1)C(N)=O the concentration found was 49 ng/mL (UPLC-MS/MS; processed rat plasma in autosampler; 0.05 µg/mL, 8 h, 25 °C, post-preparative stability).
